Assay results of several laboratories.
A part holds a random share of what one study measured.

Study 1 — technique: RNA Bind-n-Seq; molecule type: RNA; medium: in vitro; tested at: 200 nM; setting: whole 134-nt RNA, ends assumed; together with: 150 mM KCl; reference: input library; reading: higher = stronger binding
Target: Fragile X messenger ribonucleoprotein 1, C-terminal low-complexity region (Fmr1, Mus musculus, UniProt P35922)
Sequence | log2 enrichment
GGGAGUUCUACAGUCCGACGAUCCAAGUCCUGUGCUACACAUCGUAUGUACCGAAUCGGGGAAAAGGAAAAGGAAAAGGAAAGUAUUAUGUUACGCCGUUCGGAUCUGCACUUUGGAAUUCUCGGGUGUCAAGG | -0.449
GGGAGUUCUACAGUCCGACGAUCUUUGUGAGACAUGUGAAAGGAGGACAUGGUCACAGUCAUGGACAUGGACACGCUCACAGUCAUACACGUGGAAGUCAUGGACAUGGAAGAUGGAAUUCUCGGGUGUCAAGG | -2.41
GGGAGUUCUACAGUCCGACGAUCCCUCAAGUCCUGUGCUACACAUCGUAUGUACCGAAUCGGAGGAAAAAGGUGGAAAGUAUUAUGUUACGCCGUUCGGAUCUGCACUUCCAGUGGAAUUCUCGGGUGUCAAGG | 0.144
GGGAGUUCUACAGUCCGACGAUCUCAAGUCCUGUGCUACACAUCGUAUGUACCGAAUCGGAAAAAAAGGUUUGGUGGAAAGUAUUAUGUUACGCCGUUCGGAUCUGCACUUCCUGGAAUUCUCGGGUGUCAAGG | -0.845
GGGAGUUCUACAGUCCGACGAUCUCAAGUCCUGUGCUACACAUCGUAUGUACCGAAUCGGGUUUUUGGGAGGGUGGGAAAGUAUUAUGUUACGCCGUUCGGAUCUGCACUUCCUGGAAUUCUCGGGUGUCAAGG | 1.17
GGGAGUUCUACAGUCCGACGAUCCACAGACAACACGCACCCACACAGACACAGAGGGAAGGGGUUGGGAUGGGGACAGGGUGCACAGCAGGGCGGGGUAGGGCCCCAGCCCCUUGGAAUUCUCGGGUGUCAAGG | 1.19
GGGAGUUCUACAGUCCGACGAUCUCCUGUGCUACACAUCGUAUGUACCGAAUCGGGUUUUUUGGUUUUUUGGGUUUUUUGGGGAAAGUAUUAUGUUACGCCGUUCGGAUCUGCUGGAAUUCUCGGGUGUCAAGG | -0.213
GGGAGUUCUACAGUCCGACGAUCGUCAAGUGCUUCUGCUCCUGAUGUGGAUGACCCAGAGGCAUUCCCAGCUCUGGCUUAACUGGAUGCCAUAAGACAACCCUGGUUCCUUUGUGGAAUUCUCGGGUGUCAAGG | 0.214
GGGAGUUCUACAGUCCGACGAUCCACAGACAACACGCACCCACACAGACACAGAGGGAAGGGGUUGGGAUGGGGACAGGGUGCAAAGCAGGGCGGGGUAGGACCCCAGCCCCUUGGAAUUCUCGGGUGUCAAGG | 1.14
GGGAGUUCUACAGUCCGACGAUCGGUAGCAAGAGCUCCAGAGAGAAGUCGAGGAAGAGAGAGACGGGGUCAGAGAGAGCGCGCGGGCGUGCGAGCAGCGAAAGCGACAGGGGCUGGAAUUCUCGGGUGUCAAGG | 0.394
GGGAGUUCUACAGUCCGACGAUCUGGCGCCGUUCGACACCAGGCGGAUCCGCUCUGCAGCACGAACCCAUCUCCAGCCGCAGCCGCAGCCGCCGCCCGGGCCGAGGAGCAGCCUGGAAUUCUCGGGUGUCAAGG | -0.239
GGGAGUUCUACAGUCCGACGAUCACCAUGCAGGUGGGCAUCUUUGGGAAGUGGGGCAAGGGGGGGAUAGGGAGGGGGGUAACACUUUGGGAACAGGCGGUCCCAGGUCGUUUCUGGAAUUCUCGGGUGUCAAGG | 0.654
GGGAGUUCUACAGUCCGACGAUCUCCUGUGCUACACAUCGUAUGUACCGAAUCGGGGAAAAAGGAAAAAGGGGAAAAAGGGGAAAGUAUUAUGUUACGCCGUUCGGAUCUGCAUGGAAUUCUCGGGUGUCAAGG | -0.00146
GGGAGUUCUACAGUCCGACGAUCGCAGGAAGUAAAAACAAAUGGCAAUGCUUCGGAUAGUGGCAGGGGUGGGGGUUGCUAAGGAAAGGGUGGGAUGGGAGUGGGUAAAGAGUUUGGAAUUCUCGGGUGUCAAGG | 0.398

Study 2 — technique: protein binding microarray; molecule type: double-stranded DNA, one strand shown; medium: in vitro; tested at: not given; reference: not given; reading: higher = stronger binding
Target: Histone acetyltransferase KAT6A, winged helix 1, GST fusion (KAT6A, Homo sapiens, UniProt Q92794, residues 1-85)
Setting: 8-mer, flanks averaged, mean of 2 arrays, mostly near background
Residues (chain): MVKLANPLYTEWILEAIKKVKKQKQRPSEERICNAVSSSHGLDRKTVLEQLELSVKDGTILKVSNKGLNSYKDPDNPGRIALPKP
Sequence | E-score
ACTGTTTG | -0.0863
ACACTGAG | -0.0803
AGAGATAT | -0.246
AGTTGTGG | -0.218
AAAGCTCC | -0.00806
AGAGTCCA | -0.196
GACGTCGA | -0.0403
ACGCCTGG | 0.0289
AAATACAC | -0.125
CAGGCCCA | -0.186
AAATTATT | -0.0997
GTAGGAAC | -0.168
TAATATTA | -0.0778
ATACATTA | -0.0647
CTCTAGAA | -0.211
AGGGCCGA | 0.18
AGGACCGG | 0.087
AGGCCCGA | 0.099
CCGGTGGA | 0.191
TATTTAGA | -0.0739
GCAGGACA | -0.111
GATAGTGC | -0.0464
TATACTAA | -0.239
AACGTATC | -0.121
GAGACAAA | -0.246

Study 3 — technique: protein-binding microarray; molecule type: double-stranded DNA, one strand shown; medium: in vitro; tested at: 0.8 µM; setting: whole 60-bp probe, no competitor; reading: higher = stronger binding
Target: Centromere-binding protein 1, full length, N-terminal tag (CBF1, Saccharomyces cerevisiae, UniProt P17106, residues 1-351)
Sequence of UniProt P17106 (whole entry, looked up): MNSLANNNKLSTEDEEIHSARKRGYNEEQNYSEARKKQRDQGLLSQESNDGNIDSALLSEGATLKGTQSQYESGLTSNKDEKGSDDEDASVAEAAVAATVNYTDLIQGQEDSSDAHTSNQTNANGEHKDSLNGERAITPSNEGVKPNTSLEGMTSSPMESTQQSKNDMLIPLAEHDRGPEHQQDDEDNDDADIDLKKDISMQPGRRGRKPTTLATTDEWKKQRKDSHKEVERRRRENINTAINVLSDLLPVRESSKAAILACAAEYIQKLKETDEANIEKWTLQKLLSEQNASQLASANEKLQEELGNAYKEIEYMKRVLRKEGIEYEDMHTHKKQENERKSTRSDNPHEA
Sequence | fluorescence intensity
TGTACGAAGCTATGTTTCGTGACTATAGTAGTTAGGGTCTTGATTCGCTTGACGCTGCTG | 536 a.u.
GAATTGTCATGTGAAGGCGTGATAGGTATGTCGTAGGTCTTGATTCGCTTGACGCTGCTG | 1310 a.u.
CTATTGTTGTTATCGCTGATGGCGCTCCTCCATTTCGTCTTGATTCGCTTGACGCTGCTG | 541 a.u.
GAATGTATCATTGCCCTCGTGTTAGATTGGTGATAGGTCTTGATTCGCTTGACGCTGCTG | 611 a.u.
CTAAAATATGACAGGCACGTAAAAGGGTTCTTCTTCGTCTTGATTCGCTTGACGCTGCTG | 523 a.u.
GAAACCAAATGCAATTCAGTCACGTTCCACACATAGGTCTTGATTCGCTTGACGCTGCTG | 2850 a.u.
GAAAGGAAGAATAGTCACACTTGCAGTGTAATTTAGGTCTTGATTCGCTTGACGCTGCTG | 519 a.u.
CTATTGAGTCATGGGCACGTCACCGCACAACAGTTCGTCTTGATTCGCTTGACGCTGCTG | 668 a.u.
GAAAGCGTCAAGAATAACGTGCATTTAATTTTTTAGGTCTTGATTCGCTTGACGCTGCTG | 702 a.u.
GAACGGTTTGCACGTGATCTCAATTGATAATTCTAGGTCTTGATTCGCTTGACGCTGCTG | 20100 a.u.
GAAGAAATTAGAAAACAGGTGAAGACCACTATTTAGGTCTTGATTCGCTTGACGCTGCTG | 505 a.u.
CTATTTTGTACATATCGTGTCATACTGCGACTGTTCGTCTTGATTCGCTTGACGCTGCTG | 606 a.u.
CTATCGCAACGGTACGTCGTGATTTTTTTATGGTTCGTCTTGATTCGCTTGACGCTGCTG | 700 a.u.
TGTACGAAGCTATAGGTGGTGATTATAGTAGTTAGGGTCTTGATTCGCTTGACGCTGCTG | 580 a.u.
CTAAAACATACACATCACGTGACCACAAGAATGTTCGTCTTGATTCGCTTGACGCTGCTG | 43800 a.u.
GAATCGTTAAAATACGTGATGGTGTTATTTTTATAGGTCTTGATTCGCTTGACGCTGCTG | 546 a.u.
CTATAGATCACTTTGCACGCGGGCATTGAATGATTCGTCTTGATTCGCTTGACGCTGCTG | 620 a.u.
CTATTACTTCTATATCACGAGATGAGCATACGGTTCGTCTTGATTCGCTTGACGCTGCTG | 1780 a.u.
CTAATTGCACTTTCCCATGCGCACTACCCATCTTTCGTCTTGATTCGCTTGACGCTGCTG | 509 a.u.
GAAAGTAACCTCAGGAACGTGACAACTACTTTTTAGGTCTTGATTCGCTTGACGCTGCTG | 1420 a.u.

Study 4 — technique: RNA Bind-n-Seq; molecule type: RNA; medium: in vitro; tested at: 365 nM; reference: no-protein control; reading: higher = stronger binding
Target: RNA binding protein fox-1 homolog 2, RRM domain, GST-SBP tag (RBFOX2, Homo sapiens, UniProt O43251-10, residues 100-194)
Setting: natural RNA segment, single round, ends assumed
Construct (chain): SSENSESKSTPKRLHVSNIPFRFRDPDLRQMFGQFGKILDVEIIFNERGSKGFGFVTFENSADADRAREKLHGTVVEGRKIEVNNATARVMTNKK
Sequence | RBNS enrichment (R)
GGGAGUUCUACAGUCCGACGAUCGUGCCUCCACCACCCCCAGCAGAAAAAAUAAGAUACUGAAAUAAGUUGAGUCAUUUCGCAAACAUUUACUGAGCACCUCCUGUGUGCCAGGCUCCUAGAAAGACAGGGAGUGGAAUUCUCGGGUGCCAA | 0.548
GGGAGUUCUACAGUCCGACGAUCAUGGUACAAAUUUAUUAAUAUGAAGAAAUGCAAAAUGUAUUGCUUUUGAUAUUUCUCUUCCGAGAUGAACAAGUAGCAUGUAAUGCAACUGUUUGACAGUUUAACUCAAGUGGAAUUCUCGGGUGCCAA | 2.53
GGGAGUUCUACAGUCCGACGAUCGGAAAGCAGGCCAAGAACUUGUCAUGUGCCCCAUCCACUUCGAGGCUGGAUGGGAUGGGGCUCCAAGUCUGAGAUUUCAUUGAUACUAGGCAAUAUGGUUUGUAAAAUACUGGAAUUCUCGGGUGCCAA | 0.387
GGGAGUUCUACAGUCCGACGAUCAUUUAUGUCUGCAUAUUCUUCUAGCUGAAUUUUUGAUUUUACUACAUUUGAUAUUUUUCUUUUUAGUUUCCUUGACUAAAGAGGUACAAUAUACUCUGAUCUACCCCUUAUGGAAUUCUCGGGUGCCAA | 0.493
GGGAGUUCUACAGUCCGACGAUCUAAACCUACAAUUGAUUGCUUCUAGAGUUUAAAAAGGGAAAGUUGUGCUUGUAUUUGCAAGUUGAAUUUUUUUAAUGUUGGUUCCAAAAACAGUGAAUUAGCUGAAAAGAUGGAAUUCUCGGGUGCCAA | 3.15
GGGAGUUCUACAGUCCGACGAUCGCUUUGUGUAAAUACAUCUUUAACAUUUGGGUGGAGAGGGGCCUUAAGAAGGACAGUUCAUUGUAGGAAAGCAAUUCUGUACAUGAGUUUAAGCAUUCUUGUUGCAUUGUUGGAAUUCUCGGGUGCCAA | 0.626
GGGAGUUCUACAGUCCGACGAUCAAAGGUAUUCUUAAGAAUUUGCAGGUACUACAGAUUUUCAAAACUGAAUGAGAGAAAAUUGUAUAACCAUCCUGCUGUUCCUUUAGUGCAAUACAAUAAAACUCUGAAAUUGGAAUUCUCGGGUGCCAA | 1.29
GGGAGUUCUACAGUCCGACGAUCAAUAAUUGUGUUCAUUUUUGUUUUGUUUCCUUGUGUACUCCAGCAUUGGUUAUAGUCAUGGGAAAGGAAGGUGUCCACGCAGGCACAAUUAACAAGAAAACAUAUGAACUUGGAAUUCUCGGGUGCCAA | 0.429
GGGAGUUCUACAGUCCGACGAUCACAGAUACAGUCUCCUUGGCCUAUAAUGAAACCACUAGGACUUUAUACAGUUUUCCUUAAUUUGUUGACAUAUAAAUGGUAAAUUAUAUUUAGGCUUAUCCUGUUUUGAAUGGAAUUCUCGGGUGCCAA | 0.789
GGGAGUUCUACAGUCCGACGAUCAGGCUCCAUUCCAAAGUGGGAAAGAAAUUCUGCUAGCAUUGUUUAAAUCAGGCAAAAUUUGUUCCUGAAGUUGCUUUUUACCCCAGCAGACAUAAACUGCGAUAGCUUCAUGGAAUUCUCGGGUGCCAA | 0.389
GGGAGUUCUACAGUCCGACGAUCAAAAUUCAGAAGUUAAUGGUUUUUUGUAAGCACAAAAGAAGUAUGGUAGAAAUUAAUCUUAACAAGACUUUAUGAGGCAGGAUCAAAUCCUAGUGGGCCUGAGCAGGUUUUGGAAUUCUCGGGUGCCAA | 1.85
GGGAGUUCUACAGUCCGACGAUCACUGUGAAACACUUAACAUAAGAACAAACGCAGCGUCUGGAUUCUUUCCAAGGAGAGCAGCUUUCUCCACAGGAACACAGUAACAAAAGAGGUCCGCCGCCAUCCACACCUGGAAUUCUCGGGUGCCAA | 0.256

A few entries again (study 2):
Sequence | E-score
CTCTAGAA | -0.211
AAATACAC | -0.125
AACGTATC | -0.121
TATACTAA | -0.239
CAGGCCCA | -0.186
GTAGGAAC | -0.168
ACACTGAG | -0.0803
GCAGGACA | -0.111
AGTTGTGG | -0.218
TAATATTA | -0.0778
AAAGCTCC | -0.00806
